# Published values of several laboratories.
# Lines come from different studies, so protocols differ. ± marks the error that the study gave.
SMILES,species,sample,route,dose,time,AUC(0-t)
Nc1ccc2cc3ccc(N)cc3nc2c1,male CD-1 mouse,lungs,intravenous,15 mg/kg,,27.5 µg·h/mL
CCCCCCCC(=O)N[C@@H](CCCCN)C(=O)N[C@@H](CCCCN)C(=O)N[C@@H](C)C(=O)N[C@@H](CC(C)C)C(=O)N[C@@H](CCCCN)C(=O)N[C@@H](CC(C)C)C(=O)N[C@@H](C)C(=O)N[C@@H](CCCCN)C(=O)N[C@@H](CCCCN)C(=O)N1CCC[C@H]1C(=O)N[C@@H](CC(C)C)C(=O)N[C@@H](CCCCN)C(=O)N[C@@H](CC(C)C)C(=O)N[C@@H](CC(C)C)C(=O)N[C@@H](CCCCN)C(N)=O,"ICR mouse, female",whole blood,intravenous bolus,3 mg/kg,,0.27 ± 0.031 µg·h/mL
O=c1c2cc(Cl)c(CO)cc2[nH]c(=S)n1Cc1cncnc1,mouse,,oral,3.98 mg/kg,,0.147 µg·h/mL
CC/C(=C(\c1ccccc1)c1ccc(OCCN(C)C)cc1)c1ccccc1,"CD-1 mouse, male",plasma,intraperitoneal,1 mg/kg,,0.0672 µg·h/mL
Cc1ccccc1C(=O)NN=Cc1ccc(O)c(Br)c1,C3H/HeN mouse IN model,plasma,intraperitoneal,0.8 mg/kg,,0.174 µg·h/mL
CN[C@H]1CC[C@@H](c2ccc(Cl)c(Cl)c2)c2ccccc21,"CD-1 mouse, male",plasma,intraperitoneal,30 mg/kg,,3.22 µg·h/mL
Cc1[nH]c(C)c(S(=O)(=O)Nc2ccc(S(F)(F)(F)(F)F)cc2)c1C(=O)N1CCC(F)(F)C1,mouse,plasma,intraperitoneal,40 mg/kg,,190000 ng·h/g
COc1cccc2c1CCCC2CCCN1CCN(C2CCCCC2)CC1 (stereo not drawn),"CD-1 mouse, male",plasma,intraperitoneal,0.3 mg/kg,,0.00448 µg·h/mL
NC(=O)c1cccc(-c2cc(OC(=O)NC3CCCCC3)ccc2O)c1,mouse,plasma,oral,10 mg/kg,0 to 24 h,0.258 µg·h/mL

# Excerpt of the above:
SMILES,species,sample,route,dose,time,AUC(0-t)
O=c1c2cc(Cl)c(CO)cc2[nH]c(=S)n1Cc1cncnc1,mouse,,oral,3.98 mg/kg,,0.147 µg·h/mL
